Published values from different studies.
Protocols differ between the studies behind these lines. ± gives the spread as reported.

Compound | assay | test system | setting | tissue uptake
CCCC[C@H](NC(=O)CN1CCC(NC(=O)CN2CCN(CC(=O)O)CCN(CC(=O)O)CCN(CC(=O)O)CC2)CC1)C(=O)N[C@H]1CC(=O)NCCCC[C@@H](C(N)=O)NC(=O)[C@H](Cc2c[nH]c3ccccc23)NC(=O)[C@H](CCCNC(=N)N)NC(=O)[C@@H](Cc2ccccc2)NC(=O)[C@H](Cc2c[nH]cn2)NC1=O [gallium-68 labelled] |  | male C57BL/6J mice, B16-F10 tumours, spleen | intravenous, 1 h, blocking study, added: 100 µg non-radioactive Ga-peptide | 1.1 ± 0.5 %ID/g
OCc1cn(Cc2ccc(-c3noc(-c4ccc(OCC[18F])c(C(F)(F)F)c4)n3)cc2)nn1 |  | female Lewis rat, kidney | intravenous, 30 min | 2.11 ± 0.08 %ID/g
O=C([O-])c1cccc(CN(CCN(Cc2cn(Cc3ccccc3)nn2)Cc2cccc(C(=O)[O-])n2)Cc2cn(Cc3ccccc3)nn2)n1.[64Cu+2] |  | healthy athymic nude mice, liver | intravenous, 24 h | 8.14 %ID/g
O=C(O)C1CN(Cc2ccc(-c3noc(-c4ccc(OCC[18F])c(C(F)(F)F)c4)n3)cc2)C1 |  | Sprague-Dawley rat, male, normal, fat | iv, 60 min | 0.051 ± 0.003 %ID/g
CCCC[C@@H]1NC(=O)[C@@H](NC(=O)[C@H](CCC(=O)O)NC(=O)CNC(=O)CN2CCN(CC(=O)O)CCN(CC(=O)O)CCN(CC(=O)O)CC2)CCCCNC(=O)C[C@@H](C(N)=O)NC(=O)[C@H](C(C)C)NC(=O)[C@@H]2CCCN2C(=O)[C@H](CCCNC(=N)N)NC(=O)CNC(=O)[C@H](Cc2c[nH]c3ccccc23)NC(=O)[C@H](CCCNC(=N)N)NC(=O)[C@@H](Cc2ccccc2)NC(=O)[C@H](Cc2c[nH]cn2)NC(=O)[C@H](CCC(=O)O)NC1=O [gallium-67 labelled] |  | normal C57 mice, kidneys | intravenous, 0.037 MBq/mouse, 2 h | 37.2 ± 2.16 %ID/g
C[C@H](CN(C)Cc1ccccc1)NC(=O)c1ccc(-c2noc(C(F)(F)[18F])n2)cc1 | PET imaging | female Sprague-Dawley rats, muscle | intravenous, 1 min | 0.4 ± 0.29 SUV
CC(C)[C@H](NC(=O)[C@@H]1CCCN1C(=O)[C@H](CCCNC(=N)N)NC(=O)[C@H](CS)NC(=O)[C@H](Cc1c[nH]c2ccccc12)NC(=O)[C@H](CCCNC(=N)N)NC(=O)[C@@H](Cc1ccccc1)NC(=O)[C@H](Cc1c[nH]cn1)NC(=O)[C@H](CCC(=O)O)NC(=O)[C@H](CS)NC(=O)[C@H](CS)NC(=O)COCCOCCNC(=O)[C@@H]1CC(=O)N[C@@H](CCCNC(=N)N)C(=O)NCC(=O)N[C@@H](CC(=O)O)C(=O)N[C@H](Cc2ccc(O)cc2)C(=O)N1)C(N)=O [technetium-99m labelled] |  | nude mouse, M21 melanoma xenograft, muscle | intravenous, 2 h | 0.14 ± 0.16 %ID/g
CCCC[C@H](NC(=O)CNC(=O)CNC(=O)CN1CCN(CC(=O)O)CCN(CC(=O)O)CC1)C(=O)N[C@H]1CC(=O)NCCCC[C@@H](C(N)=O)NC(=O)[C@H](Cc2c[nH]c3ccccc23)NC(=O)[C@H](CCCNC(=N)N)NC(=O)[C@@H](Cc2ccccc2)NC(=O)[C@H](Cc2c[nH]cn2)NC1=O [gallium-67 labelled] |  | female C57 mice, B16/F1 melanoma, heart | intravenous, 0.037 MBq, 0.5 h | 1.52 ± 0.28 %ID/g

Repeated from above:
Compound | assay | test system | setting | tissue uptake
CCCC[C@@H]1NC(=O)[C@@H](NC(=O)[C@H](CCC(=O)O)NC(=O)CNC(=O)CN2CCN(CC(=O)O)CCN(CC(=O)O)CCN(CC(=O)O)CC2)CCCCNC(=O)C[C@@H](C(N)=O)NC(=O)[C@H](C(C)C)NC(=O)[C@@H]2CCCN2C(=O)[C@H](CCCNC(=N)N)NC(=O)CNC(=O)[C@H](Cc2c[nH]c3ccccc23)NC(=O)[C@H](CCCNC(=N)N)NC(=O)[C@@H](Cc2ccccc2)NC(=O)[C@H](Cc2c[nH]cn2)NC(=O)[C@H](CCC(=O)O)NC1=O [gallium-67 labelled] |  | normal C57 mice, kidneys | intravenous, 0.037 MBq/mouse, 2 h | 37.2 ± 2.16 %ID/g
